Measurements gathered from unrelated publications.
Parts stem from different laboratories: compare values within a part only. Substitutions count along the parent as printed.

Block 1 — technique: protein-binding microarray; molecule type: double-stranded DNA, one strand shown; matrix: in vitro; concentration: not given; direction: higher = stronger binding
Target: Transcriptional repressor CTCF (CTCF, Homo sapiens, UniProt P49711, residues 1-727, full length assumed)
Notes: k-mer, scored over probes, only values ≥0.25
Construct (chain): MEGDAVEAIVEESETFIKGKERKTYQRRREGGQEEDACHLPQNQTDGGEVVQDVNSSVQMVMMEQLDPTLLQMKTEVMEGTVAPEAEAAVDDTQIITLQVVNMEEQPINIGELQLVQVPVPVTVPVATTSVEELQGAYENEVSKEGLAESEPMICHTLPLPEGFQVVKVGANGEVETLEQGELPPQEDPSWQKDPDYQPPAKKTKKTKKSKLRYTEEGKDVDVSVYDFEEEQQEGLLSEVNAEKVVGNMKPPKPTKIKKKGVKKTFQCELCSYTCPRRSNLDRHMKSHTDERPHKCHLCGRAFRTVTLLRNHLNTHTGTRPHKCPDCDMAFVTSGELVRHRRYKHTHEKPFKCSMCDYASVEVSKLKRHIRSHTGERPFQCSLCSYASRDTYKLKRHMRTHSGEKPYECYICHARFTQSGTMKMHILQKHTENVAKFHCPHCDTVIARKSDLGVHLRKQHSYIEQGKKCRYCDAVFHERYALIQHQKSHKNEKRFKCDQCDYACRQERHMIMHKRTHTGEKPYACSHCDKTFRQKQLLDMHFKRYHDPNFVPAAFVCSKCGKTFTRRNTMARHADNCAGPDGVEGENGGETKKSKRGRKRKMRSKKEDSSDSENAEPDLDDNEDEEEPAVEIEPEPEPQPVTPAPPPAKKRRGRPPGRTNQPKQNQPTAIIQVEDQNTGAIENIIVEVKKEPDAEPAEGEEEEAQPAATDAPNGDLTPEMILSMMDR
| Oligonucleotide | E-score |
| --- | --- |
| ACAATAAC | 0.257 |
| GCATGCGC | 0.309 |
| AACCACAT | 0.322 |
| GGTATATA | 0.305 |
| CTCGCGCA | 0.289 |
| TACATTAA | 0.257 |
| CAAGCGCA | 0.287 |
| ATATACTC | 0.278 |

Block 2 — target: OGT, full length, His-tagged (human); technique: phage display, sequencing; matrix: in vitro; concentration: 1 µg OGT; reference: input library; direction: higher = stronger binding
Notes: single substitutions, 15-mer displayed peptide, unchanged parent 6.14
Starting sequence: peptide; VAYPNSYMPKYQIST; partner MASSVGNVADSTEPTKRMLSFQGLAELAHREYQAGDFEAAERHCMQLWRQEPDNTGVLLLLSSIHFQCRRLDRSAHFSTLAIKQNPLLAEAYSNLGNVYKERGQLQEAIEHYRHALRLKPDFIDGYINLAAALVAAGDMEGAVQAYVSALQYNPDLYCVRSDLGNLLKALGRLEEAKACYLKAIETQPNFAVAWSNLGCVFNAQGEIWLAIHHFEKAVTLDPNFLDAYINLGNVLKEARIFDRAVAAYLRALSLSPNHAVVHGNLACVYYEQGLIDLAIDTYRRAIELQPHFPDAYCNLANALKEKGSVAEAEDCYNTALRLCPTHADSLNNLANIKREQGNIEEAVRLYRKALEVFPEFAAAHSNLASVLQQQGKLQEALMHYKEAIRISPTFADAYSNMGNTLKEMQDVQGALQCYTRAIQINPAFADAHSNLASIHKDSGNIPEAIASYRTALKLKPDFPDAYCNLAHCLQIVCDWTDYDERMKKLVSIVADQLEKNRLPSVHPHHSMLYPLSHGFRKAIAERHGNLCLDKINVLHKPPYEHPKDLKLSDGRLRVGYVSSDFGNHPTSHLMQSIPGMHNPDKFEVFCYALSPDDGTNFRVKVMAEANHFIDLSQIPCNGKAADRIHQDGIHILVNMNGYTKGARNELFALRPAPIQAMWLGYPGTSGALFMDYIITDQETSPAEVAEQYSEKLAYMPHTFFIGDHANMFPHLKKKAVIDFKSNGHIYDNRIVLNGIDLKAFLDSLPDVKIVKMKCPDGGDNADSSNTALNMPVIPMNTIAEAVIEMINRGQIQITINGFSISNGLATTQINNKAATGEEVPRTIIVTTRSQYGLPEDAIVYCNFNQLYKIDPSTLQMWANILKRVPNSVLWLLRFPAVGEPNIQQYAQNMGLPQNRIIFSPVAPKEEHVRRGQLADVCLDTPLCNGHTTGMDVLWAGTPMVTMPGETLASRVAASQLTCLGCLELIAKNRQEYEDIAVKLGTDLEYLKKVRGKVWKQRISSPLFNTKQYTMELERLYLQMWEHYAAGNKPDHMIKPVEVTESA
| Variant | fold enrichment |
| --- | --- |
| VYYPNSYMPKYQIST [A2Y] | 7.59 fold |
| VAYMNSYMPKYQIST [P4M] | 1.7 fold |
| VAYPNSYMPKSQIST [Y11S] | 0.639 fold |
| VAYPTSYMPKYQIST [N5T] | 8.16 fold |
| LAYPNSYMPKYQIST [V1L] | 6.48 fold |
| VAYPISYMPKYQIST [N5I] | 2.56 fold |
| VAYPNSYMPKRQIST [Y11R] | 0.699 fold |
| VAPPNSYMPKYQIST [Y3P] | 7.3 fold |

Block 3 — technique: DHFR PCA, deep sequencing; matrix: yeast; with: (+)-ABA 58 µM; reference: wild-type fitted maximum; direction: higher = stronger binding
Target: ABI1, truncated, D143A, DHFR fusion (Arabidopsis thaliana)
Notes: methotrexate growth selection, single substitutions
Starting sequence: PYL1, truncated, DHFR fusion (Arabidopsis thaliana); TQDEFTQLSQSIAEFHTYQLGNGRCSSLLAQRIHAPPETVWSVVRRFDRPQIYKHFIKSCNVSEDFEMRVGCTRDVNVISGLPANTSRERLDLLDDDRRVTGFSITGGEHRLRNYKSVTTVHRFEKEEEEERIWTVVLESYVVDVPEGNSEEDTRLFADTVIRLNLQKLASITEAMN
| Variant | relative binding score |
| --- | --- |
| E128L | 89.8% |
| E64R | 84.4% |
| W134N | 93.5% |
| S104H | 37.3% |
| R46L | 58.1% |
| E147P | 83.3% |
| Y53N | 1.89% |
| V100D | -1.14% |

Further values, each from its own experiment — starting sequence: viral docking peptide; TSVRRALFTGGSD
| Variant | target | test | test system | setting | how to read | endpoint | result |
| --- | --- | --- | --- | --- | --- | --- | --- |
| R5L | CCNE2, cyclin fold, Cln2 fusion (human) | yeast growth competition, sequencing | yeast | strong parent motif | reference: not given, higher = stronger binding | normalised enrichment score | 0.252 |

For quick reference, copied from above (block 3):
| Variant | relative binding score |
| --- | --- |
| E64R | 84.4% |
